Measurements collected from several papers.
Numbered parts are unrelated; each lists some results of a single study. Positions count from the first letter of the parent shown.

Block 1
Target: HLF, bZIP domain (human)
Technique: DHFR protein complementation
Medium: yeast
Notes: single substitutions, most at no-binding floor
Relative to: wild-type JUN-FOS pair
Direction: higher = stronger binding
Starting sequence: JUN, bZIP domain (human); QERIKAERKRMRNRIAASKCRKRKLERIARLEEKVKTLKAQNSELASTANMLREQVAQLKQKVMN; partner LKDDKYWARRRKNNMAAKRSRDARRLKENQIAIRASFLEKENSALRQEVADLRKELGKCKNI
| Substitution | binding fitness [natural log] |
| --- | --- |
| T37W | -1.27 |
| E44C | -1.57 |
| L52A | -1.59 |
| E54P | -1.54 |
| Q41D | -1.17 |
| E32K | -1.34 |
| N42C | -1.52 |
| L45M | -1.45 |
| V35H | -1.56 |
| L38T | -1.47 |
| T48L | -1.43 |
| V35W | -1.47 |
| K36N | -1.43 |
| L38R | -1.51 |
| I28G | -1.38 |
| Q55F | -1.36 |
| L45R | -1.52 |
| E44W | -1.45 |
| K34T | -1.23 |
| T37L | -1.44 |
| L52F | -1.55 |

Block 2
Target: ABI1, truncated, D143A, DHFR fusion (Arabidopsis thaliana)
Technique: DHFR PCA, deep sequencing
Medium: yeast
Notes: methotrexate growth selection, single substitutions
With: (+)-ABA 17 µM
Relative to: wild-type fitted maximum
Direction: higher = stronger binding
Starting sequence: PYL1, truncated, DHFR fusion (Arabidopsis thaliana); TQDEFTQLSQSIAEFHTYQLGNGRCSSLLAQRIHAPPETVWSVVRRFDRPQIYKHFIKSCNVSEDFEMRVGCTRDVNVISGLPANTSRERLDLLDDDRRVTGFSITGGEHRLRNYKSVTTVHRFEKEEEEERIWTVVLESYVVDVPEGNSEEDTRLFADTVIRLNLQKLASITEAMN
| Substitution | relative binding score [%] |
| --- | --- |
| R74E | -2.46 |
| N177L | 79.8 |
| R69I | 82.5 |
| I172S | 22.1 |
| R90S | 38 |
| D153M | -0.188 |
| S42V | 24.9 |
| D97H | 86 |
| S42F | 25.5 |
| S80N | 29.3 |

Block 3
Target: RNA binding protein fox-1 homolog 2, RRM domain, GST-SBP tag (RBFOX2, Homo sapiens, UniProt O43251-10, residues 100-194)
Technique: RNA Bind-n-Seq
Form: RNA
Medium: in vitro
Tested at: 365 nM
Notes: natural RNA segment, single round, ends assumed
Relative to: no-protein control
Direction: higher = stronger binding
All sequences stand within: GGGAGUUCUACAGUCCGACGAUC … UGGAAUUCUCGGGUGCCAA
| Strand | RBNS enrichment (R) |
| --- | --- |
| AAAGAUGAGAAUCUGGUGUUUCUGUACUUUAUUAUUUUCAAUAAAACUCAAUGUUUUGAACUUUUAAGUAUCUGUAAUCCUGUAUAAAUGUAAAUUAAGCAUUUUUUCCU | 0.745 |
| GCGGCCCUUCCUGCAGCGCCUGCCGCCCCGGGGACUCGCAGCACCCACAGCACCACGUCCUCGAAUUCUCAGACGACACCUGGAGACUGUCCCGACACAGCGACGCUCCC | 0.443 |
| CCAUAACAUAGCAGUGAAUCAGUCUCAGUGGUAUUGCUGAUAGCAGUAUUCAGGAAUAUGUGAUUUUAGGAGUUUCUGAUCCUGUGUGUCAGAAUGGCACUAGUUCAGUU | 0.458 |
| AACUCAAGUAGAACAAAUCCCUUCUUGGUCUUCUGGGACCACUAGAGGUCACCGUGUCCAGUCCUUUGCCUCACCCCCACUGCCCCAGUCUGUAUGCACUGAAAAACGUC | 0.875 |
| CCCACUUAAUGCGUUGGAUAUGAUUUUUCAAAGAAUGCUUCAUGCCCAAAAUACCAGCCUGUUUAGCAGUGUUACACUGUUUGAUCUGCGGGCACUUGUUGCAUUGCCUG | 0.69 |
| AAUACGAGGAACUUCUUCAGGUGAUAAAGAAAUUUCGGGAUGAAGAGCUUGAGCACCAUGACAUAGGCCUCGACCAUGAUGCAGAAUUGGCUCCAGCCUAUGCCGUCCUG | 0.607 |
| GUAGAAUUACACGAUAAGCAAUGGUCAGACUUUCCUUCUGUGGAUCCUUAUGCCAAUUCAGCUACUAAUCGGUCAUUCAUAAAUGGUGAUUAAAAUGAUCAGGUAAUUUU | 0.388 |
| CCUGUGUUCUCUUCCCUCUCUCCCAAUAAAAGGGCUCCCAUUAUAAAUGCCAUGUACUUCUCUUGGGAAAAUAGACCCCCUUGCCUAGAGUAAGUUGUUAACUGAGGGCU | 0.803 |

Block 4
Target: CCNB2, cyclin fold, Cln2 fusion (human)
Technique: yeast growth competition, sequencing
Medium: yeast
Notes: weak parent motif
Relative to: not given
Direction: higher = stronger binding
Starting sequence: SLBP docking peptide (human); ARYKRKLLINDFG; partner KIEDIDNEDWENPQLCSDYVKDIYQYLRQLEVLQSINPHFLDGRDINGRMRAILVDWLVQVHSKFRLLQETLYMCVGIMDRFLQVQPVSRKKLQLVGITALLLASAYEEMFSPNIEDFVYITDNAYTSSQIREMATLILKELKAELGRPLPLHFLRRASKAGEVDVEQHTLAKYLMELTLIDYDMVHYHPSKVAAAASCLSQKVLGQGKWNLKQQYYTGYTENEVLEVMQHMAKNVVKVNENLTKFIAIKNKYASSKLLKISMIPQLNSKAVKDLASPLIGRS
| Substitution | normalised enrichment score |
| --- | --- |
| ARYKRKQLINDFG [L7Q] | 0.52 |
| ARKKRKLLINDFG [Y3K] | -0.0816 |
| ARYKRKLLYNDFG [I9Y] | 0.513 |
| VRYKRKLLINDFG [A1V] | 0.87 |
| ARRKRKLLINDFG [Y3R] | 0.15 |
| ARGKRKLLINDFG [Y3G] | 0.552 |
| ARYKQKLLINDFG [R5Q] | 0.204 |
| ARYKRKLLTNDFG [I9T] | 0.529 |
| ARYKRRLLINDFG [K6R] | 0.49 |
| ARYQRKLLINDFG [K4Q] | 0.435 |
| ARYKRKLLIMDFG [N10M] | 0.288 |
| ARYKRKLLINGFG [D11G] | 0.658 |
| ARYKRKSLINDFG [L7S] | 0.17 |
| ARYKRDLLINDFG [K6D] | -0.00607 |
| ARYKRKLLINLFG [D11L] | 0.274 |
| ARYKRKLLINFFG [D11F] | 0.228 |
| ARYKRKLLINDFT [G13T] | 0.281 |
| ARYKRKLLMNDFG [I9M] | 0.688 |
| ARYKRKLLIQDFG [N10Q] | 0.557 |
| ARYCRKLLINDFG [K4C] | 0.00825 |
| DRYKRKLLINDFG [A1D] | 0.622 |
| ARYKRKLWINDFG [L8W] | 1.29 |
| ARYKRKLLINDFH [G13H] | 0.599 |
| ARYKRKLCINDFG [L8C] | 0.454 |
| ARYKRKLLIGDFG [N10G] | 1.53 |

A few entries again (block 1):
| Substitution | binding fitness [natural log] |
| --- | --- |
| T37W | -1.27 |
| L38T | -1.47 |
| Q41D | -1.17 |
| L52F | -1.55 |
| E54P | -1.54 |
